Assay results of several laboratories.
Parts stem from different laboratories: compare values within a part only. Substitutions count along the parent as printed.

Sample 1
Target: RNA binding protein fox-1 homolog 2, RRM domain, GST-SBP tag (RBFOX2, Homo sapiens, UniProt O43251-10, residues 100-194)
Method: RNA Bind-n-Seq
Molecule type: RNA
Medium: in vitro
Tested at: 365 nM
Notes: natural RNA segment, single round, ends assumed
Relative to: no-protein control
Reading: higher = stronger binding
All sequences stand within: GGGAGUUCUACAGUCCGACGAUC … UGGAAUUCUCGGGUGCCAA
Construct (chain): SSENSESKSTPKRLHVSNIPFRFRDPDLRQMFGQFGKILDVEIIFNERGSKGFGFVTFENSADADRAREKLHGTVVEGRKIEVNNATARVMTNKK
Strand | RBNS enrichment (R)
GUAUAUCAUACAUGAUCUUAAAGCCAAAGAUGCCAUGAAAAUACUGCAGUAUGGCUGUGAUUUCUGCUUCUCCAUGUAGGGGAGCAUGGGACAUCCACUGCCACGCCAAA | 0.26
GUUCUCCGUGGUGGAAUUGACCGAAAGCUCUAUGUUUUCGUUAAUAAAGGGCAACUUAGCCAAGUUUAAGGUCGCGUGCGAUGCAUUCUUCCCUAGCCAAGGGGCAGUCA | 0.265
AACUACAUUCCAGAUUUAAAGAAAUGAAAGGAUACCAUUAGUGUGUAUAACAGAUUAUUGUUCAUACUUGUAAAGCAUCUUAUGUCAUUGAGAAUAUAAAGAACAGUGCC | 0.638
CUUCUGCCCAACACUGGGUGCCCCUUCCCAGUUUCCCAGCAGGGGCUUCAUGGGCCACCGUCAGUGGGUCUGGGCCUGCCAGAGUCGUCUUGCUCUUCCUCUUGCUUCUA | 0.343
CGUCAACUCCUGUCAUUUUUAGAAAAUAAAACUGGAAAUUGAAUGUGGGUGGCAUGAUUGUACCCUCCUGGCUCUGUAUUUUCUCACUCCUCUGUCCUUCUAUAACUAGG | 20.6
GGCUGGCUUUUUCUACACCCUCUUUUGAGUGUAGUUUGGUAUUUUGUAAUUGAGAGCUCAUUUCAAAAGCAGAAAAAGACAACAAAUAUUAAAGCAAGGAAAAGUGUAAC | 0.342
CCACCAGCCUUUCUUCCCCUUUGUGUGUGUGGUUCAAGUGUGCACUGGGAGGAGGCUGAGGCCUGUGAAGCCAAACAAUAUGCUCCUGCCUUGCACCUCCAAUAGGUUUU | 0.351
UUGUCCCAGUUGUCCAAAACAGCUGGAACUUGUCUUCACCGCCCAGGGCACCGCCUCCCCGUGUCCUGUGUUUGGUCAGACACCUGCCCUUCACCCUCUGUGUCCAGAGG | 0.21
CAAAAGAGCUCUGGCCCGCAUCUCGCUGUGCCCUGAAGGGGGAUGAAGGGCGAUGCCUCGCCCGAGGCUUUGGGCUGCUGCACUGCAUGCUGGGACUGCUCCUACUCUCU | 5.73
GUCUGCCUCUCAUGUGUGACCCCAAGGCAGCCAGGCUGUCACUGCUGCUGUCACAGGCUGACACCUUACAGAUGUCCUGACCAUGGGUGACCCUCCUCGGAGCGUCCAGA | 0.202
UGACCCUUUAAUACAUACAGUUCCUCAUGGUGUGGUGACCCCCCCCAACCAUAAAAUUAUCUUAUUGCUACUUCAUAACUGUAAUUUUGCUACUGUUAUAAAUCAUAAUG | 1.13
GGAAGGCACUCAGGCUUUCGUUGGAGAAACAGAAAUAAGGCCUUCUUUUGAGCAGCGAUUGCUGGAUCAUUGAUCUGUUUGAGGAAGUGUCUGACCUGGGCCUGAGAGCU | 0.854

Sample 2
Target: JDP2, bZIP domain (human)
Method: DHFR protein complementation
Medium: yeast
Notes: single substitutions, most at no-binding floor
Relative to: wild-type JUN-FOS pair
Reading: higher = stronger binding
Parent: JUN, bZIP domain (human); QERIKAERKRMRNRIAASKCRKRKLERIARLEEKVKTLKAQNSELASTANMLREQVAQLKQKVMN; partner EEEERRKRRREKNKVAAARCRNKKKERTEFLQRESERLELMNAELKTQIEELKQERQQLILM
Variant | binding fitness
I28G | 0.352 natural log
A40W | 0.237 natural log
V56Q | -0.449 natural log
K39G | 0.277 natural log
R53H | 0.179 natural log
T48K | 0.262 natural log
V56W | -0.612 natural log
I28N | 0.244 natural log
V35M | 0.244 natural log
A46S | 0.263 natural log
Q55Y | 0.173 natural log
Q58R | 0.114 natural log
A57H | 0.289 natural log

Sample 3
Target: Ras GTPase-activating protein-binding protein 1, full length (G3BP1, Homo sapiens, UniProt Q13283)
Sequence of UniProt Q13283 (whole entry, looked up): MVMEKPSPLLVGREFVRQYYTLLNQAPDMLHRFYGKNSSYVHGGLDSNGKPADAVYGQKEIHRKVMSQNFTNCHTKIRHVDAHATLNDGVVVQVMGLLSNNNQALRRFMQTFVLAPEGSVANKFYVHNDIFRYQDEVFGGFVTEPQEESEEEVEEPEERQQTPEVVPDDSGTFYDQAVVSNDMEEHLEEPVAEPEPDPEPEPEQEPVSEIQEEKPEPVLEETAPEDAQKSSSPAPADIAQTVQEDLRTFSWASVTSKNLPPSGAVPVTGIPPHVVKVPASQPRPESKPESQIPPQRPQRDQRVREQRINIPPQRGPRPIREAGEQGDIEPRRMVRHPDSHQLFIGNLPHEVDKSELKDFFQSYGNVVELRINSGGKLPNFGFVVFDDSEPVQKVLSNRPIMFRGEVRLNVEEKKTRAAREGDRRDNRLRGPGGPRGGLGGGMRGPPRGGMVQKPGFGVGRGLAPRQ
Method: RNA Bind-n-Seq
Molecule type: RNA
Medium: in vitro
Tested at: 200 nM
Notes: whole 134-nt RNA, ends assumed
Together with: 150 mM LiCl
Relative to: input library
Reading: higher = stronger binding
Library: 7-deaza-guanosine replaces G
All sequences stand within: GGGAGUUCUACAGUCCGACGAUC … UGGAAUUCUCGGGUGUCAAGG
Strand | log2 enrichment
AGUCCUGUGCUACACAUCGUAUGUACCGAAUCAAAUUUAAACCCAAACCCCCCCAAAAAAGUAUUAUGUUACGCCGUUCGGAUCUGCACU | 1.05
UGGGAGGUGGAUUUUGUUUAUUUUUUUAGCUCAUUUCCAGGAGUGGGAAUUUUUUUUUAAUAUGUGUCAUGAAUAAAGUUGUUUUUGAAA | -0.525
CUGUGCUACACAUCGUAUGUACCGAAUCGGGUUUUUUUGGGUUUUUUUGGGGUUUUUUUGGGAAAGUAUUAUGUUACGCCGUUCGGAUCU | 1.53
UGGCCCUGGUGGCAUGCGGGGAGGCAGAGGUGGCCUCAUGGAUCGUGGUGGUCCCGGUGGAAUGUUCAGAGGUGGCCGUGGUGGAGACAG | 0.242
UAGCAUAUUGCCUUGUUCACUACCGAGGAGAUGAGAAGAUUAAAGGUUUCAUAUGGGAUCUCAUUACUCCAACUGAAGAUGGACAGACAC | 0.813
AGUCCUGUGCUACACAUCGUAUGUACCGAAUCGGGAAAAAGGGUGGGUUUUUUUGGGAAAGUAUUAUGUUACGCCGUUCGGAUCUGCACU | -1.35
CUCAAGUCCUGUGCUACACAUCGUAUGUACCGAAUCGGGUUGGGUUGGUUGGGGAAAGUAUUAUGUUACGCCGUUCGGAUCUGCACUUCC | 0.372
UCAAGUCCUGUGCUACACAUCGUAUGUACCGAAUCGGGAAAGGAAAGGGAAAGGGAAAGUAUUAUGUUACGCCGUUCGGAUCUGCACUUC | -0.344
UGCAGCAGCGCCAGGAAUCGAGGAUGGUAAAAUGACCCAGGGGAAGAAGAAGAAACGGGCCGCGAACCGCAGUAUCAUGCUGGCCAAGAA | 0.204
CUGUGCUACACAUCGUAUGUACCGAAUCGGGCCCCCCCGGGGCCCCCCCGGCCCCCCCGGGAAAGUAUUAUGUUACGCCGUUCGGAUCUG | -0.643
UCCUGUGCUACACAUCGUAUGUACCGAAUCGGCCCCCCCGGCCCCCCCGGGCCCCCCCGGAAAGUAUUAUGUUACGCCGUUCGGAUCUGC | 0.603

Sample 4
Target: CCNB3, cyclin fold, Cln2 fusion (human)
Method: yeast growth competition, sequencing
Medium: yeast
Notes: weak parent motif
Relative to: not given
Reading: higher = stronger binding
Parent: CDKN1B docking peptide (human); PSACRNLFGPVDH; partner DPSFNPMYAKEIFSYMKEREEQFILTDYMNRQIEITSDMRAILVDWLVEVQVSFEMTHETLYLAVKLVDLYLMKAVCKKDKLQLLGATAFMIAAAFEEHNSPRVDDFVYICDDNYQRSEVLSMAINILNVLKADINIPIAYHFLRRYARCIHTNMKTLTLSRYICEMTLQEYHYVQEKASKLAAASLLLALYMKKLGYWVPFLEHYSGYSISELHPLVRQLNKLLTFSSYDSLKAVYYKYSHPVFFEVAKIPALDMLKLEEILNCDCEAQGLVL
Variant | normalised enrichment score
S2W | 0.0633
N6L | 0.582
F8N | 0.167
L7K | 0.12
N6D | 0.429
C4A | 0.378
S2P | 0.407
L7A | 0.0329
L7M | 0.228
V11R | 0.293
G9W | 0.0771
H13Y | 0.305
H13P | 0.616
C4F | 0.307
L7D | 0.227
L7C | -0.241
A3N | 0.45
D12T | 0.451

Sample 5
Target: UBE2I UBC core domain (UniProt P63279)
Method: yeast two-hybrid
Medium: yeast
Notes: mostly zero background
Relative to: not given
Reading: higher = stronger interaction
B1: NEURL1 RING domain (UniProt O76050); chain VTPGLGQWSDECTICYEHAVDTVIYTCGHMCLCYACGLRLKKALHACCPICRRPIKDIIKT
B2: TRIM13 RING domain (UniProt O60858); chain MELLEEDLTCPICCSLFDDPRVLPCSHNFCKKCLEGILEGSVRNSLWRPAPFKCPTCRKETSATGINS
B3: TRAF5 RING domain (UniProt O00463); chain FVERLEERYKCAFCHSVLHNPHQTGCGHRFCQHCILSLRELNTVPICPVDKEVIKSQEVFK
B4: DTX4 RING domain (UniProt Q9Y2E6); chain QKVRHPPDEDCTICMERLTAPSGYKGPQPTVKPDLVGKLSRCGHVYHIYCLVAMYNNGNKDGSLQCPTCKTIYGVKTGTQ
B5: TRIM40 RING domain (UniProt Q6P9F5); chain LQKDNQEEGVCPICQESLKEAVSTNCGHLFCRVCLTQHVEKASASGVFCCPLCRKPCSEEVLG
B6: TRIM5 RING domain (UniProt Q9C035); chain ILVNVKEEVTCPICLELLTQPLSLDCGHSFCQACLTANHKKSMLDKGESSCPVCRISYQPENIRP
B7: RC3H1 RING domain (UniProt Q5TC82); chain QAPQWTDFLSCPICTQTFDETIRKPISLGCGHTVCKMCLNKLHRKACPFDQTTINTDIELL
Molecule | lacZ reporter activity
VEPSEENSKDCVVCQNGTVNWVLLPCRHTCLCDGCVKYFQQCPMCRQFVQESFALC (CGRRF1 RING domain (UniProt Q99675)) | 0
B1 (NEURL1 RING domain) | 0
B2 (TRIM13 RING domain) | 0
B3 (TRAF5 RING domain) | 0
B4 (DTX4 RING domain) | 0
B5 (TRIM40 RING domain) | 0
B6 (TRIM5 RING domain) | 0
B7 (RC3H1 RING domain) | 0
GAAPGPEAAECLVCSELALLVLFSPCQHRTVCEECARRMKKCIRCQVVVSKKLRPD (MIB2 RING domain (UniProt Q96AX9)) | 0

A few entries again (sample 4):
Variant | normalised enrichment score
D12T | 0.451
L7C | -0.241
H13P | 0.616
H13Y | 0.305
